Published values of several laboratories.
A part holds a random share of what one study measured. Substitutions count along the parent as printed.
Sequence of UniProt P46734 (whole entry, looked up): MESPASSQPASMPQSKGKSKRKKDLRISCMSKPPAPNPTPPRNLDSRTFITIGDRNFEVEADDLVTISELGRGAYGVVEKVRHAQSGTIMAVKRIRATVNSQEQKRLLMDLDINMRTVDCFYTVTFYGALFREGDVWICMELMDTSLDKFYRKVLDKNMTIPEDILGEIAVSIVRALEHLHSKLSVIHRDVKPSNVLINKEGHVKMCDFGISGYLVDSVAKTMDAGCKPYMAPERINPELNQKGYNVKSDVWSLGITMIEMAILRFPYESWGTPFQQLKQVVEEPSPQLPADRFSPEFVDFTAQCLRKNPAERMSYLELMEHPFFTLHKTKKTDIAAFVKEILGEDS
Sequence of UniProt P54764 (whole entry, looked up): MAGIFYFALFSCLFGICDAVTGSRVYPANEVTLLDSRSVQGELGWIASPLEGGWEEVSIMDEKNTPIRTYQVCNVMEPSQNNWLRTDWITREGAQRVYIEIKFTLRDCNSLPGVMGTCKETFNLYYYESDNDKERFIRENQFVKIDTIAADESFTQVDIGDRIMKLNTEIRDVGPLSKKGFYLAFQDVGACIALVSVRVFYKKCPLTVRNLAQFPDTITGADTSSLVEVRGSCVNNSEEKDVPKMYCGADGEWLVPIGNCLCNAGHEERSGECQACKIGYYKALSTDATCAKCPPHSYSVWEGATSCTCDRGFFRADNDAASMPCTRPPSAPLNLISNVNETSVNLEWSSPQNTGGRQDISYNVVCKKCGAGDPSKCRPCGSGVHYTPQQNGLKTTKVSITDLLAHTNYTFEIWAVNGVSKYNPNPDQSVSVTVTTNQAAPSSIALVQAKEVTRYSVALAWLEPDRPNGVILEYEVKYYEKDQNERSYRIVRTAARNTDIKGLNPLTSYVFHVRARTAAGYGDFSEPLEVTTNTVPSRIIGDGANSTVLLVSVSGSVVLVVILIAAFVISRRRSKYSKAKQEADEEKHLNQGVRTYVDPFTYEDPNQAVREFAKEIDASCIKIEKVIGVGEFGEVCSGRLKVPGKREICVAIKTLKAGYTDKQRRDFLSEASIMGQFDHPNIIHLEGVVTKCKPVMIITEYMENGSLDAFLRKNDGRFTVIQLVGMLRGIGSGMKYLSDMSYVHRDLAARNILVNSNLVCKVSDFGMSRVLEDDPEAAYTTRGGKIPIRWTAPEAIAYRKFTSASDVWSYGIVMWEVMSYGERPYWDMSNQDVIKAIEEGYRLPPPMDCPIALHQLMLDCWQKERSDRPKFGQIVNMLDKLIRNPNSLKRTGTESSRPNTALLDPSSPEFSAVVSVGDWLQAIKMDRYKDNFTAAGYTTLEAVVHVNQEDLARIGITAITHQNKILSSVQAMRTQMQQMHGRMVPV

Set 1
Target: CCNB3, cyclin fold, Cln2 fusion (human)
Method: yeast growth competition, sequencing
Matrix: yeast
Setting: strong parent motif
Reference: not given
Reading: higher = stronger binding
Measurement: normalised enrichment score
Parent: viral docking peptide; TSVRRALFTGGSD
G10H: 1.45
S12Y: 1.72
V3G: -0.0711
S2V: 1.06
R5H: 0.437
V3P: 0.743
F8Q: 0.295
R5L: 0.0189
F8P: 0.18
S12D: 2.59
L7Y: 0.464
R5M: 0.399
L7C: 0.0718
S12P: 2.08
R5C: 0.372
F8N: 0.165
R5W: 0.4
T9G: 1.89
S2Q: 1.2
G11N: 1.79
S2Y: 1.6
R4E: -0.057
S2R: 1.82
G11A: 1.54
R4S: 0.443

Set 2
Target: tungstate, free oxyanion
Method: microfluidic competitive inhibition
Matrix: in vitro, cell-free expressed
Concentration: not given
Setting: derived from inhibition constants, unchanged parent 2230 nM
Reading: lower = stronger binding
Measurement: oxyanion analog dissociation constant
Parent: PafA, mature enzyme, eGFP fusion (Elizabethkingia meningoseptica, UniProt Q9KJX5); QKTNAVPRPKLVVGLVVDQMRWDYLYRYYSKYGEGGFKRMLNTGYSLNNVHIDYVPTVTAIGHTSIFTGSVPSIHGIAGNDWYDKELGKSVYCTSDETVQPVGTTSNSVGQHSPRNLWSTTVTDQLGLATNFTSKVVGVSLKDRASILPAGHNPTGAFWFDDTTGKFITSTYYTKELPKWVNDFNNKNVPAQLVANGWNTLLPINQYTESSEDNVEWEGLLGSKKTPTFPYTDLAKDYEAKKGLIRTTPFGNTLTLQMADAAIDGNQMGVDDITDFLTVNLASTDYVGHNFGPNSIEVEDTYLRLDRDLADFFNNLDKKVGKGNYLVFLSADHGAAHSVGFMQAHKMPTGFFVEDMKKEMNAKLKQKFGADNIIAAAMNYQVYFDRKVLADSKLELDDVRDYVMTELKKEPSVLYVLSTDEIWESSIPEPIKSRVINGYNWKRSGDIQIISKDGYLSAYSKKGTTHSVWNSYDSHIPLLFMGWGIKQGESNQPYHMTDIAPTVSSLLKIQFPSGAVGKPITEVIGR
G76A: 2.08 µM
T155V: 2.2 µM
F167G: 1.59 µM

Set 3
Target: Protein C-ets-1 (ETS1, Homo sapiens, UniProt P14921, residues 1-441, Y397A, full length assumed)
Sequence of UniProt P14921 (whole entry, unmodified, looked up): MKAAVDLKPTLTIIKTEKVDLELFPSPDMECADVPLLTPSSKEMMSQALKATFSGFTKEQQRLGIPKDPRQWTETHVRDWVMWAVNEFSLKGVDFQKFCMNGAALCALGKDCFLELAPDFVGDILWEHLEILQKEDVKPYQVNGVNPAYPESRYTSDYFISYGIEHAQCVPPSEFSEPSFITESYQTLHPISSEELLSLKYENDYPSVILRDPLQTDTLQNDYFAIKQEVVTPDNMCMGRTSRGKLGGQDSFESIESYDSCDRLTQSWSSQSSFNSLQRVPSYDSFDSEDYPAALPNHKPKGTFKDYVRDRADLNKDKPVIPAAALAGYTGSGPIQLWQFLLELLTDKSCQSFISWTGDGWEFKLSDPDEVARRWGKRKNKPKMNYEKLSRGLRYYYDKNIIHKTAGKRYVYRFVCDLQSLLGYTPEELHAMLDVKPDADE
Method: protein-binding microarray
Molecule type: double-stranded DNA, one strand shown
Matrix: in vitro
Concentration: not given
Setting: k-mer, scored over probes, only values ≥0.25
Reading: higher = stronger binding
Measurement: E-score
CGGAAACA: 0.384
ATTGTCGA: 0.348
GTTGCAAC: 0.272
ATTGCCGC: 0.264
AATAGCAA: 0.269
CATTACAA: 0.291
CACCGGAA: 0.401
ACAACATG: 0.309

Set 4
Target: RNA binding protein fox-1 homolog 2, RRM domain, GST-SBP tag (RBFOX2, Homo sapiens, UniProt O43251-10, residues 100-194)
Method: RNA Bind-n-Seq
Molecule type: RNA
Matrix: in vitro
Concentration: 365 nM
Setting: natural RNA segment, single round, ends assumed
Reference: no-protein control
Reading: higher = stronger binding
Measurement: RBNS enrichment (R)
Constant ends, left off below: GGGAGUUCUACAGUCCGACGAUC … UGGAAUUCUCGGGUGCCAA
Construct (chain): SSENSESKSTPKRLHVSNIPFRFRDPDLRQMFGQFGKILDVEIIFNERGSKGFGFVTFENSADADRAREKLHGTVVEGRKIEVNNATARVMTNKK
GAUCCACUGCAGAAAGUUGUGUGCUUCAACCACGAUAAUACCCUGCUUGCCACUGGAGGAACAGAUGGCUACGUCCGUGUCUGGAAGGUGCCCAGCCUGGAGAAGGUUCU: 0.41
AUAUGUAGAUGGCCAACCGACUUUUUAAUAUUUUGUAAAUAAAUUGGGAUUCUGUGUGUCCUCUGUGCUAGUAGUCCAGGACAGGAAUGUAAAGUCAGAAUGCGGGGCCA: 15.5
CAUUUUCGAAGGAGCAGUGUGACCUCCUGUGACCCGUGAAUGUGCCUCCAAGCGGCCCUGUGUGUUUGACAUGUGAAGCUAUUUGAUAUGCACCAGGUCUCAAGGUUCUC: 0.326
UUGAUACGAGAAAUAUGGCUUAAGAACACAUGAUGUCUCAGAAGGCCCAUGCGCACACCAGACCGCUGUCUUAGUACUGUCACUGUUGUAAAGGCACAUGUUGGAACACA: 0.306
UCUGUCCAUUUCUGUUUUGCUUUCCUGGCUAAACCCAUCUACCAUUCUUAACACUGGUAGCUCCUGUCCCAUUCCAAGACUCACUCUCUCAGACCUUCCCAUCUCCCUGG: 0.454
CCAGGUAGAGGCAGCUGUGUGUGGAGAUGCAGUGUGUUCCUAGAGAAGGUGAACAACCUGAAAGCGCCUGUGAAGGGAACCAGUCACUCUUCUGUACCUCUCUUCUCUUA: 0.62
UUUUCUAUUUUGAGAAUUAUUUUAAUAUAUAUUUUAAUAUAUAAACUUGUGAGUUAAAUUUUUUUUUUGCAAAAUUAGCACAUGAAAAGAGAUUGAUGGUUUUAAGUAGU: 3.21
CGUGAGGAACAUGGUAGGUUCCUCACUUAUCACUGUAGAUGAUUCUAUAUGGACACAACAGUAAGAAGAAUGGGGCCUCGUCCCUGUCGACUUGAAUAUUAUCCCUAUGU: 0.367

Set 5
Target: Phosphate system positive regulatory protein PHO4, full length, GST-tagged (PHO4, Saccharomyces cerevisiae, UniProt P07270, residues 1-312)
Method: competition protein-binding microarray
Molecule type: double-stranded DNA, one strand shown
Matrix: in vitro
Concentration: 2 µM
Setting: whole 60-bp probe, lowest competitor level
Added: Cbf1 competitor, 0.05 µM
Reading: higher = stronger binding
Measurement: fluorescence intensity
Constant ends, left off below: … GTCTTGATTCGCTTGACGCTGCTG
Residues (chain): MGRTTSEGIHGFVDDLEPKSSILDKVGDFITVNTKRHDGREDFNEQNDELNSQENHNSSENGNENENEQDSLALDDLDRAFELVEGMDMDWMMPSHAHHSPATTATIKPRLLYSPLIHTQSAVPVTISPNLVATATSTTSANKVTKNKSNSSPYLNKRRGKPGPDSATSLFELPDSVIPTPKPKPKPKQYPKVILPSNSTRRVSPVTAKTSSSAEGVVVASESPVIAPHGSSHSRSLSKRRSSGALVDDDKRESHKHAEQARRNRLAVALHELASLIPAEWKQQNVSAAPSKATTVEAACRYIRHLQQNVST
TGGTATCGCGAAAGAAACGTGTAGGCAATTAGGACT: 12800 a.u.
TAAGTTCCTTCCCAACACGTGGATTAGAATAGGTAG: 16400 a.u.
CTACCAATGTAGTCAAACGTGAAGCCGGGCTTGGAA: 6140 a.u.
CTAACGAAGGTTTTTCACGTGGGTTACAAGCCAAGT: 13600 a.u.
CGGTACCCCAACCGTCACAATAAGTACTTGCGCCAT: 3610 a.u.
TTACAACAGGAATACCTTGTGACAGGCAACCAAGAA: 4220 a.u.
CATACCCAACCTTGTCACCAGACTTAAGATATTTGT: 3690 a.u.
TGCACCAATGTCCTCCACGGGATCGCCACTTTTTTT: 8180 a.u.

Set 6
SMILES: COC(=O)c1cc(N(C)C(=O)c2ccn3ncc(-c4ccc(C(=O)O)cc4)c3c2)ccc1Cl
Measurement: IC50
Androgen receptor (AR, Homo sapiens, UniProt P10275); cell-free assay: > 30 µM
Dual specificity mitogen-activated protein kinase kinase 3 (MAP2K3, Homo sapiens, UniProt P46734); enzyme activity, inhibitor: > 30 µM
Ephrin type-A receptor 4 (EPHA4, Homo sapiens, UniProt P54764); enzyme activity, inhibitor: > 30 µM

Other studies, line by line
PhoQ, residues 284 288 289 292 302 303 GTAMQF
fold induction (PhoP, residues 12 14 15 18 19 VHSCL (Escherichia coli, UniProt P23836); Sort-seq, refers to: YFP reporter; E. coli; PhoQ-PhoP variant library, added: 10 µM Mg2+; reference: high Mg2+ state, higher = stronger signaling): 2.33

Some of these lines once more (set 1):
S2V: 1.06
R5H: 0.437
V3P: 0.743
F8Q: 0.295
R5L: 0.0189
F8P: 0.18
